Measurements gathered from unrelated publications.
Lines come from different studies, so protocols differ. ± gives the spread as reported. In brackets after ≈: the same amount, converted by molar mass.

Compound = CC(=O)O[C@@H]1C[C@@H](C)O[C@H]2O[C@@H]3C[C@@H]4CC[C@@H]5[C@H](CC[C@]6(C)[C@@H](C7=CC(=O)OC7)CC[C@]56O)[C@@]4(C)C[C@H]3O[C@]21O; organism = Schistosoma mansoni; test system = mouse, chronic infection; setting = oral, 10 mg/kg single dose, MV; measurement = worm number; result = 11 ± 7.1
Compound = CCCCCCCC(=O)N[C@@H](CCN)C(=O)N[C@@H](CCN)C(=O)N[C@@H](CC(C)C)C(=O)N[C@@H](CC(C)C)C(=O)N[C@@H](CCN)C(=O)N[C@@H](CCN)C(=O)N[C@@H](CC(C)C)C(=O)N[C@@H](CCN)C(=O)N[C@@H](CCN)C(=O)N[C@@H](CC(C)C)C(N)=O; organism = Staphylococcus aureus, Escherichia coli; how to read = reference: S. aureus over E. coli; measurement = MIC ratio; result = 1
Compound = CC(=O)O[C@@H]1C[C@@H](C)O[C@H]2O[C@@H]3C[C@@H]4CC[C@@H]5[C@H](CC[C@]6(C)[C@@H](C7=CC(=O)OC7)CC[C@]56O)[C@@]4(C=O)C[C@H]3O[C@]21O; organism = Schistosoma mansoni; assay = microscopic viability score; test system = adult worms; setting = 1 µM, 72 h; measurement = viability effect; result = 90%
Compound = C=CCc1ccc(OCC=C(C)C)c(OC)c1; organism = Spodoptera frugiperda; test system = larvae; setting = 1000 µg/mL; how to read = reference: untreated control; measurement = antifeedant index; result = 63.7%
Compound = CC1(C)CC[C@]23CC[C@]4(C)[C@H](CC[C@@H]5[C@@]6(C)CCCNC(C)(C)[C@@H]6CC[C@]54C)[C@H]2[C@H]1OC3; organism = Human cytomegalovirus; test system = HFF, AD169; how to read = reference: CC50 over EC50; measurement = selectivity index; result = < 3
Compound = C=CCc1ccc(OCc2ccccc2)c(OC)c1; organism = Spodoptera frugiperda; test system = larvae; setting = 250 µg/mL; how to read = reference: untreated control; measurement = antifeedant index; result = 42.5%
Compound = CC[C@H](C)[C@H](NC(=O)[C@H](CCCCN)NC(=O)[C@H](CCCCN)NC(=O)[C@H](CC(C)C)NC(=O)[C@H](CCCCN)NC(=O)[C@H](CCC(=O)O)NC(=O)[C@H](CCCCN)NC(=O)[C@@H](NC(=O)[C@H](CCCCN)NC(=O)[C@H](CC(N)=O)NC(=O)[C@H](CCCNC(=N)N)NC(=O)[C@H](Cc1ccccc1)NC(=O)[C@H](CCCCN)NC(=O)[C@H](CCCNC(=N)N)NC(=O)[C@H](CC(C)C)NC(=O)[C@H](CCCNC(=N)N)NC(=O)[C@H](CCCCN)NC(=O)[C@H](CCCNC(=N)N)NC(=O)[C@H](CC(C)C)NC(=O)CN)[C@@H](C)CC)C(=O)NCC(=O)N[C@@H](CCC(N)=O)C(=O)N[C@@H](CCCCN)C(=O)N[C@H](C(=O)N[C@@H](CCC(N)=O)C(=O)NCC(=O)N[C@@H](Cc1ccccc1)C(=O)N[C@H](C(=O)N1CCC[C@H]1C(=O)N[C@@H](CCCCN)C(=O)N[C@@H](CC(C)C)C(=O)N[C@@H](C)C(=O)N1CCC[C@H]1C(=O)N[C@@H](CCCNC(=N)N)C(=O)N[C@H](C(=O)N[C@@H](CC(=O)O)C(=O)N[C@@H](Cc1ccc(O)cc1)C(=O)O)[C@@H](C)O)C(C)C)[C@@H](C)CC; organism = Staphylococcus; assay = inhibition zone; test system = methicillin-resistant coagulase-negative P1369; measurement = lethal concentration; result = 1.57 µM
Compound = CC(=O)Nc1cccc(CNC(=O)c2cnc3ccccc3c2C(F)(F)F)c1; organism = Drosophila melanogaster; test system = APP transgenic (Alzheimer model); setting = in food, 100 µM, 72 h, from adult day 3; measurement = median survival; result = 33 days
Compound = CC(=O)C1=C(O)C=C2Oc3c(C(C)=O)c(O)c(C)c(O)c3[C@@]2(C)C1=O; organism = Candida tropicalis; assay = broth microdilution; test system = ATCC 750, fluconazole and amphotericin B resistant; setting = 24 and 48 h; measurement = MIC99; result = 17.4 µM (≈ 5.99 µg/mL)
Compound = COc1ccccc1-c1n[nH]c2nc(N[C@H]3CC[C@H](NS(=O)(=O)CC(C)C)CC3)ncc12; organism = Leishmania donovani; test system = promastigotes; how to read = reference: wild type; measurement = fold change EC50; result = 1
Compound = CC(=O)N[C@@H](CS)C(=O)N[C@@H](CO)C(=O)N[C@@H](CO)C(=O)N[C@@H](Cc1c[nH]c2ccccc12)C(=O)N[C@@H](Cc1ccc(O)cc1)C(=O)N1CCC[C@H]1C(=O)N[C@@H](Cc1ccccc1)C(=O)N[C@@H](CO)C(=O)N[C@@H](CCC(N)=O)C(=O)N[C@@H](Cc1ccc(O)cc1)C(=O)N[C@@H](CCC(N)=O)C(=O)N[C@@H](Cc1c[nH]c2ccccc12)C(=O)N[C@@H](Cc1c[nH]c2ccccc12)C(=O)N[C@@H](CCCCN)C(N)=O; organism = HIV-1; test system = YU2 pseudovirus (R5); setting = concentration not given; measurement = neutralisation activity; result = active
Compound = CC[C@H](C)[C@H](N)C(=O)NCC(=O)NCC(=O)N[C@@H](CCCCN)C(=O)N[C@@H](CC(N)=O)C(=O)NCC(=O)NCC(=O)N[C@@H](Cc1c[nH]c2ccccc12)C(=O)N[C@@H](Cc1c[nH]c2ccccc12)C(=O)NCC(=O)N[C@@H](CCCCN)C(=O)N[C@H](C(=O)N[C@@H](CCCNC(=N)N)C(=O)N[C@@H](Cc1c[nH]c2ccccc12)C(=O)NCC(=O)N[C@@H](CC(C)C)C(=O)N[C@@H](CC(C)C)C(=O)N[C@@H](CO)C(=O)N[C@@H](CC(C)C)C(=O)N[C@H](C(=O)N[C@@H](CCCCN)C(=O)NCC(=O)N[C@H](C(=O)N[C@@H](C)C(=O)NCC(=O)N[C@@H](CCC(N)=O)C(=O)N[C@@H](CCCNC(=N)N)C(=O)N[C@@H](CC(C)C)C(=O)N[C@@H](CC(C)C)C(=O)O)[C@@H](C)CC)[C@@H](C)CC)C(C)C; organism = Gram-negative bacteria; assay = MIC; setting = concentration not given; measurement = antibacterial activity; result = active
Compound = COc1ccc(Br)cc1/C=N/NC(=O)Cn1ccc(=O)c2ccccc21; organism = Bipolaris maydis; assay = microbial growth; setting = 50 µg/mL; measurement = inhibition; result = 13.3%
Compound = C/C=C/c1ccc(OCc2ccccc2)c(OC)c1; organism = Spodoptera frugiperda; assay = insecticidal activity; test system = larvae; setting = topical; measurement = LD50; result = 4250 mg/kg
Compound = CC[C@H](C)[C@H](NC(=O)[C@H](CCCCN)NC(=O)[C@H](CCCCN)NC(=O)[C@H](CC(C)C)NC(=O)[C@H](CCCCN)NC(=O)[C@H](CCC(=O)O)NC(=O)[C@H](CCCCN)NC(=O)[C@@H](NC(=O)[C@H](CCCCN)NC(=O)[C@H](CC(N)=O)NC(=O)[C@H](CCCNC(=N)N)NC(=O)[C@H](Cc1ccccc1)NC(=O)[C@H](CCCCN)NC(=O)[C@H](CCCNC(=N)N)NC(=O)[C@H](CC(C)C)NC(=O)[C@H](CCCNC(=N)N)NC(=O)[C@H](CCCCN)NC(=O)[C@H](CCCNC(=N)N)NC(=O)[C@H](CC(C)C)NC(=O)[C@@H](N)CC(C)C)[C@@H](C)CC)C(=O)NCC(=O)N[C@@H](CCC(N)=O)C(=O)N[C@@H](CCCCN)C(=O)N[C@H](C(=O)N[C@@H](CCC(N)=O)C(=O)NCC(=O)N[C@@H](Cc1ccccc1)C(=O)N[C@H](C(=O)N1CCC[C@H]1C(=O)N[C@@H](CCCCN)C(=O)N[C@@H](CC(C)C)C(=O)N[C@H](C(=O)N1CCC[C@H]1C(=O)N[C@@H](CCCNC(=N)N)C(=O)N[C@H](C(=O)N[C@@H](CCC(=O)O)C(=O)N[C@@H](CO)C(=O)O)[C@@H](C)O)C(C)C)C(C)C)[C@@H](C)CC; organism = Staphylococcus warneri; assay = inhibition zone; test system = ATCC 1.2824; setting = LB agar, overnight; measurement = lethal concentration; result = 1 µM
Compound = O=C(Cc1csc2nc(-c3ccc(Br)cc3)cn12)NN=C1CCCC1; organism = Punta Toro virus; assay = viral cytopathicity, microscopy; test system = Vero; measurement = EC50; result = > 100 µg/mL
Compound = CC(C)C[C@@H]1NC(=O)[C@H](CCCCN)NC(=O)[C@H](C(C)C)NC(=O)[C@@H]2CCCN2C(=O)[C@@H](Cc2ccc(O)cc2)NC(=O)[C@H](CC(C)C)NC(=O)[C@H](CCCCN)NC(=O)[C@H](C(C)C)NC(=O)[C@@H]2CCCN2C(=O)[C@@H](Cc2ccc(O)cc2)NC(=O)[C@H](CCCCN)NC1=O; organism = Gram-negative bacteria; setting = 24 h, 7 strains; measurement = MIC geometric mean; result = 86.1 µg/mL (≈ 64.8 µM)

A few entries again:
Compound = CC(=O)O[C@@H]1C[C@@H](C)O[C@H]2O[C@@H]3C[C@@H]4CC[C@@H]5[C@H](CC[C@]6(C)[C@@H](C7=CC(=O)OC7)CC[C@]56O)[C@@]4(C=O)C[C@H]3O[C@]21O; organism = Schistosoma mansoni; assay = microscopic viability score; test system = adult worms; setting = 1 µM, 72 h; measurement = viability effect; result = 90%
